Assay results of several laboratories.
Protocols differ between the studies behind these lines. Numbers after ± are the reported error.

The tissue uptake of `N=C(N)NCCC[C@@H]1NC(=O)[C@H](CCCCNC(=O)CNC(=O)CNC(=O)CNC(=O)CC[C@H](NC(=O)CNC(=O)CNC(=O)CNC(=O)c2ccc(NN=Cc3ccccc3S(=O)(=O)O)nc2)C(=O)NCC(=O)NCC(=O)NCC(=O)NCCCC[C@@H]2NC(=O)[C@@H](Cc3ccccc3)NC(=O)[C@H](CC(=O)O)NC(=O)CNC(=O)[C@H](CCCNC(=N)N)NC2=O)NC(=O)[C@@H](Cc2ccccc2)NC(=O)[C@H](CC(=O)O)NC(=O)CNC1=O` [technetium-99m labelled] is reported as 1.05 ± 0.42 %ID/g (athymic nu/nu mouse, female, MDA-MB-435 xenograft, muscle; intravenous, 120 min).
With `N=C(N)NCCC[C@@H]1NC(=O)[C@H](CCCCNC(=O)CCC(NC(=S)Nc2ccc(CC3CN(CC(=O)O)CCN(CC(=O)O)CCN(CC(=O)O)CCN3CC(=O)O)cc2)C(=O)NCCCC[C@@H]2NC(=O)[C@@H](Cc3ccc(O)cc3)NC(=O)[C@H](CC(=O)O)NC(=O)CNC(=O)[C@H](CCCNC(=N)N)NC2=O)NC(=O)[C@@H](Cc2ccc(O)cc2)NC(=O)[C@H](CC(=O)O)NC(=O)CNC1=O` (stereo partly drawn) [scandium-44 labelled] the tissue uptake was 3.93 ± 1.19 %ID/g (PET imaging; female athymic nude mouse, U-87 MG xenograft tumour; intravenous, 5.5 to 7.4 MBq, 0.5 h).
The tissue uptake of `N=C(N)NCCC[C@@H]1NC(=O)[C@H](CC(=O)NC23CNCCNCC(N)(CNCCNC2)CNCCNC3)NC(=O)[C@@H](Cc2ccccc2)NC(=O)[C@H](CC(=O)O)NC(=O)CNC1=O` [copper-64 labelled] is reported as 1.05 ± 0.13 %ID/g (Nu/Nu mouse, male, tumour-bearing, lung; intravenous, 10 µCi, 2 h).
`CSCC[C@H](NC(=O)[C@H](CC(C)C)NC(=O)[C@H](Cc1c[nH]cn1)NC(=O)CNC(=O)[C@@H](NC(=O)[C@H](C)NC(=O)[C@H](Cc1c[nH]c2ccccc12)NC(=O)[C@H](CCC(N)=O)NC(=O)CCCCCNC(=O)CNC(=O)CNC(=O)CNC(=O)CSC(C)=O)C(C)C)C(N)=O` [technetium-99m labelled] gave a tissue uptake of 1.58 ± 0.45 %ID/g (Swiss mouse, liver; intravenous, 18.5 MBq, 90 min).
`CCCC[C@H](NC(=O)[C@H](Cc1cccs1)NC(=O)[C@H](Cc1c[nH]cn1)NC(=O)CCNC(=O)[C@@H](NC(=O)[C@H](C)NC(=O)[C@H](Cc1c[nH]c2ccccc12)NC(=O)[C@H](CCC(N)=O)NC(=O)[C@H](Cc1cccs1)NC(=O)CN1CCC(NC(=O)CN(CCN(CCN(CC(=O)O)CC(=O)O)CC(=O)O)CC(=O)O)CC1)C(C)C)C(N)=O` [indium-111 labelled] gave a tissue uptake of 2.4 ± 0.7 %ID/g (Swiss nu/nu mouse, male, PC-3 tumour xenograft, pancreas; intravenous, 10 pmol, 24 h).
`N=C(N)NCCC[C@@H]1NC(=O)[C@H](CCCCNC(=O)CNC(=O)CNC(=O)CNC(=O)c2ccc(NN=Cc3ccccc3S(=O)(=O)O)nc2)NC(=O)[C@@H](Cc2ccccc2)NC(=O)[C@H](CC(=O)O)NC(=O)CNC1=O` [technetium-99m labelled] gave a tissue uptake of 0.64 ± 0.11 %ID/g (athymic nu/nu mouse, female, U-87 MG glioma xenograft, muscle; intravenous, 120 min).
`N=C(N)NCCC[C@@H]1NC(=O)[C@H](CCCCNC(=O)CC[C@H](NC(=O)[C@H](CCCCNC(=O)c2ccc(NN)nc2)NC(=O)c2ccc(NN)nc2)C(=O)NCCCC[C@@H]2NC(=O)[C@@H](Cc3ccccc3)NC(=O)[C@H](CC(=O)O)NC(=O)CNC(=O)[C@H](CCCNC(=N)N)NC2=O)NC(=O)[C@@H](Cc2ccccc2)NC(=O)[C@H](CC(=O)O)NC(=O)CNC1=O` [technetium-99m labelled] gave a tissue uptake of 3.78 ± 0.81 %ID/g (athymic nude mouse, female, U-87 MG xenograft, tumor; intravenous, 0.1 MBq, 1 h).
For `CCCC[C@H](NC(=O)CNC(=O)CNC(=O)c1ccc(NN)nc1)C(=O)N[C@H]1CC(=O)NCCCC[C@@H](C(N)=O)NC(=O)[C@H](Cc2c[nH]c3ccccc23)NC(=O)[C@H](CCCNC(=N)N)NC(=O)[C@@H](Cc2ccccc2)NC(=O)[C@H](Cc2c[nH]cn2)NC1=O` [technetium-99m labelled], the tissue uptake was 0.05 ± 0.03 %ID/g (C57 mouse, B16/F1 melanoma-bearing, spleen; intravenous, 24 h).
The tissue uptake of `CCCC[C@H](NC(=O)CNC(=O)CNC(=O)CNC(=O)c1ccc(NN)nc1)C(=O)N[C@H]1CC(=O)NCCCC[C@@H](C(N)=O)NC(=O)[C@H](Cc2c[nH]c3ccccc23)NC(=O)[C@H](CCCNC(=N)N)NC(=O)[C@@H](Cc2ccccc2)NC(=O)[C@H](Cc2c[nH]cn2)NC1=O` [technetium-99m labelled] is reported as 0.52 ± 0.09 %ID (C57 mouse, B16/F1 melanoma, intestines; intravenous, 0.037 MBq, 2 h).
With `CSCC[C@H](NC(=O)[C@H](CC(C)C)NC(=O)[C@H](Cc1c[nH]cn1)NC(=O)CNC(=O)[C@@H](NC(=O)[C@H](C)NC(=O)[C@H](Cc1c[nH]c2ccccc12)NC(=O)[C@H](CCC(N)=O)NC(=O)[C@H](CC(N)=O)NC(=O)CNC(=O)[C@H](Cc1ccc(O)cc1)NC(=O)[C@H](CCCNC(=N)N)NC(=O)[C@H](CCC(N)=O)NC(=O)[C@@H]1CCCN1C(=O)CN1CCN(CC(=O)O)CCN(CC(=O)O)CCN(CC(=O)O)CC1)C(C)C)C(N)=O` [indium-111 labelled] the tissue uptake was 5.8 ± 1.4 %ID/g (Swiss nu/nu mouse, male, PC-3 tumour xenograft, pancreas; intravenous, 10 pmol, 24 h).
With `CCCC[C@H](NC(=O)CCCCCCCNC(=O)c1ccc(NN)nc1)C(=O)N[C@H]1CC(=O)NCCCC[C@@H](C(N)=O)NC(=O)[C@H](Cc2c[nH]c3ccccc23)NC(=O)[C@H](CCCNC(=N)N)NC(=O)[C@@H](Cc2ccccc2)NC(=O)[C@H](Cc2c[nH]cn2)NC1=O` [technetium-99m labelled] the tissue uptake was 0.22 ± 0.09 %ID/g (C57 mouse, B16/F1 melanoma, spleen; 2 h, with: L-lysine 12 mg co-injected).
With `N=C(N)NCCC[C@@H]1NC(=O)[C@H](CCCCNC(=O)CCOCCOCCOCCOCCNC(=O)CC[C@H](NC(=O)CCOCCOCCOCCOCCNC(=O)CC[C@H](NC(=O)CN2CCN(CC(=O)O)CCN(CC(=O)O)CCN(CC(=O)O)CC2)C(=O)NCCOCCOCCOCCOCCC(=O)N[C@@H](CCC(=O)NCCOCCOCCOCCOCCC(=O)NCCCC[C@@H]2NC(=O)[C@@H](Cc3ccccc3)NC(=O)[C@H](CC(=O)O)NC(=O)CNC(=O)[C@H](CCCNC(=N)N)NC2=O)C(=O)NCCOCCOCCOCCOCCC(=O)NCCCC[C@@H]2NC(=O)[C@@H](Cc3ccccc3)NC(=O)[C@H](CC(=O)O)NC(=O)CNC(=O)[C@H](CCCNC(=N)N)NC2=O)C(=O)NCCOCCOCCOCCOCCC(=O)NCCCC[C@@H]2NC(=O)[C@@H](Cc3ccccc3)NC(=O)[C@H](CC(=O)O)NC(=O)CNC(=O)[C@H](CCCNC(=N)N)NC2=O)NC(=O)[C@@H](Cc2ccccc2)NC(=O)[C@H](CC(=O)O)NC(=O)CNC1=O` [indium-111 labelled] the tissue uptake was 1.2 %ID/g (athymic nude mouse U-87 MG xenograft, lungs; intravenous, 1 h, with: RGD2 co-injected 14 mg/kg).

A few entries again:
With `N=C(N)NCCC[C@@H]1NC(=O)[C@H](CCCCNC(=O)CCOCCOCCOCCOCCNC(=O)CC[C@H](NC(=O)CCOCCOCCOCCOCCNC(=O)CC[C@H](NC(=O)CN2CCN(CC(=O)O)CCN(CC(=O)O)CCN(CC(=O)O)CC2)C(=O)NCCOCCOCCOCCOCCC(=O)N[C@@H](CCC(=O)NCCOCCOCCOCCOCCC(=O)NCCCC[C@@H]2NC(=O)[C@@H](Cc3ccccc3)NC(=O)[C@H](CC(=O)O)NC(=O)CNC(=O)[C@H](CCCNC(=N)N)NC2=O)C(=O)NCCOCCOCCOCCOCCC(=O)NCCCC[C@@H]2NC(=O)[C@@H](Cc3ccccc3)NC(=O)[C@H](CC(=O)O)NC(=O)CNC(=O)[C@H](CCCNC(=N)N)NC2=O)C(=O)NCCOCCOCCOCCOCCC(=O)NCCCC[C@@H]2NC(=O)[C@@H](Cc3ccccc3)NC(=O)[C@H](CC(=O)O)NC(=O)CNC(=O)[C@H](CCCNC(=N)N)NC2=O)NC(=O)[C@@H](Cc2ccccc2)NC(=O)[C@H](CC(=O)O)NC(=O)CNC1=O` [indium-111 labelled] the tissue uptake was 1.2 %ID/g (athymic nude mouse U-87 MG xenograft, lungs; intravenous, 1 h, with: RGD2 co-injected 14 mg/kg).
